Results gathered from unrelated publications.
Protocols differ between the studies behind these lines. Several values in a cell are separate wells, animals, samples, runs or records.
B1: TRIP13, human; sequence looked up; chain MDEAVGDLKQALPCVAESPTVHVEVHQRGSSTAKKEDINLSVRKLLNRHNIVFGDYTWTEFDEPFLTRNVQSVSIIDTELKVKDSQPIDLSACTVALHIFQLNEDGPSSENLEEETENIIAANHWVLPAAEFHGLWDSLVYDVEVKSHLLDYVMTTLLFSDKNVNSNLITWNRVVLLHGPPGTGKTSLCKALAQKLTIRLSSRYRYGQLIEINSHSLFSKWFSESGKLVTKMFQKIQDLIDDKDALVFVLIDEVESLTAARNACRAGTEPSDAIRVVNAVLTQIDQIKRHSNVVILTTSNITEKIDVAFVDRADIKQYIGPPSAAAIFKIYLSCLEELMKCQIIYPRQQLLTLRELEMIGFIENNVSKLSLLLNDISRKSEGLSGRVLRKLPFLAHALYVQAPTVTIEGFLQALSLAVDKQFEERKKLAAYI
B2: ATP synthase subunit alpha, human; sequence looked up; chain QKTGTAEMSSILEERILGADTSVDLEETGRVLSIGDGIARVHGLRNVQAEEMVEFSSGLKGMSLNLEPDNVGVVVFGNDKLIKEGDIVKRTGAIVDVPVGEELLGRVVDALGNAIDGKGPIGSKTRRRVGLKAPGIIPRISVREPMQTGIKAVDSLVPIGRGQRELIIGDRQTGKTSIAIDTIINQKRFNDGSDEKKKLYCIYVAIGQKRSTVAQLVKRLTDADAMKYTIVVSATASDAAPLQYLAPYSGCSMGEYFRDNGKHALIIYDDLSKQAVAYRQMSLLLRRPPGREAYPGDVFYLHSRLLERAAKMNDAFGGGSLTALPVIETQAGDVSAYIPTNVISITDGQIFLETELFYKGIRPAINVGLSVSRVGSAAQTRAMKQVAGTMKLELAQYREVAAFAQFGSDLDAATQQLLSRGVRLTELLKQGQYSPMAIEEQVAVIYAGVRGYLDKLEPSKITKFENAFLSHVVSQHQALLGTIRADGKISEQSDAKLKEIVTNFLAGFEA

Substance = colistin; tested on = Pseudomonas aeruginosa; system = PER-producing clinical isolate S13-35; measurement = MIC; value = 0.5 mg/L
Substance = B1 (TRIP13, human); tested on = PP6C (human); assay = co-immunoprecipitation, IP-MS; system = CYB5R4 knockout cells; setting = concentration not given; how to read = reference: CYB5R4 knockout over parental; measurement = log2 fold change; value = -2.4
Substance = milbemycin oxime; tested on = Saccharomyces cerevisiae; assay = cell growth; system = Pdr5 deleted, Cdr1 overexpressed; setting = 2^-3.966 µg/mL; measurement = OD600; value = 1.01 and 0.978 and 1.02
Substance = GCCATGCTTT (PNA, CPP-conjugated); tested on = Salmonella enterica serovar Typhimurium; assay = refers to: CFU; system = peptide, SL1344, Caenorhabditis elegans infection model, worms; setting = 2 × MIC, 24 h; how to read = reference: untreated; measurement = bacterial load reduction; value = 82.4%
Substance = Polymyxin B; tested on = Pseudomonas aeruginosa; system = ATCC 27853; setting = 250 µg per disc, 24 h, 37 °C; measurement = inhibition zone diameter; value = 15 mm
Substance = B2; tested on = PP6C (human); assay = co-immunoprecipitation, IP-MS; system = CYB5R4 knockout cells; setting = concentration not given; how to read = reference: CYB5R4 knockout over parental; measurement = log2 fold change; value = -0.17
Substance = CTCATAGACT; tested on = Salmonella enterica serovar Typhimurium; assay = RNA-seq, refers to: rimO (SL1344_0828); system = peptide, SL1344; setting = 5 µM, 15 min; how to read = reference: water control; measurement = log2 fold change; value = -2.66
Substance = colistin; tested on = Pseudomonas aeruginosa; assay = broth microdilution; system = clinical isolate RKI-No_84/15; measurement = MIC; value = 1 mg/L
Substance = Polymyxin B; tested on = Staphylococcus aureus; assay = DiSC3(5) fluorescence; setting = concentration not given, 48 min; how to read = higher = more depolarisation; measurement = membrane depolarisation; value = 533 a.u. and 582 a.u. and 737 a.u.
Substance = Nisin; tested on = Bacillus subtilis; assay = bacterial cytological profiling; system = ATCC 6633; setting = concentration not given; measurement = cell perimeter; value = 4.1 µm and 5.02 µm and 4.7 µm

Excerpt of the above:
Substance = GCCATGCTTT (PNA, CPP-conjugated); tested on = Salmonella enterica serovar Typhimurium; assay = refers to: CFU; system = peptide, SL1344, Caenorhabditis elegans infection model, worms; setting = 2 × MIC, 24 h; how to read = reference: untreated; measurement = bacterial load reduction; value = 82.4%
